Measurements pooled from the literature.
Lines come from different studies, so protocols differ.
Technique: steady-state kinetics
B1: UGT2A1 (Homo sapiens, UniProt P0DTE4); chain GNVLIWPMEGSHWLNVKIIIDELIKKEHNVTVLVASGALFITPTSNPSLTFEIYKVPFGKERIEGVIKDFVLTWLENRPSPSTIWRFYQEMAKVIKDFHMVSQEICDGVLKNQQLMAKLKKSKFEVLVSDPVFPCGDIVALKLGIPFMYSLRFSPASTVEKHCGKVPYPPSYVPAVLSELTDQMSFTDRIRNFISYHLQDYMFETLWKSWDSYYSKALGGLLLCCPGWSAVADLGSLQPLLPGFKRFSRLSLHCSWDYRLPAGRPTTLCETMGKAEIWLIRTYWDFEFPRPYLPNFEFVGGLHCKPAKPLPKVLWRYKGKKPATLGNNTQLFDWIPQNDLLGHPKTKAFITHGGTNGIYEAIYHGVPMVGVPMFADQPDNIAHMKAKGAAVEVNLNTMTSVDLLSALRTVINEPSYKENAMRLSRIHHDQPVKPLDRAVFWIEFVMRHKGAKHLRVAAHDLTWFQYHSLDVIGFLLVCVTTAIFLVIQCCLFSCQKFGKIGKKKKRE
B2: enzyme (Allochromatium vinosum, UniProt P45370); chain MFPIDIRPDKLTQEMLDYSRKLGQGMENLLNAEAIDTGVSPKQAVYSEDKLVLYRYDRPEGAPEAQPVPLLIVYALVNRPYMTDIQEDRSTIKGLLATGQDVYLIDWGYPDQADRALTLDDYINGYIDRCVDYLREAHGVDKVNLLGICQGGAFSLMYSALHPDKVRNLVTMVTPVDFKTPDNLLSAWVQNVDIDLAVDTMGNIPGELLNWTFLSLKPFSLTGQKYVNMVDLLDDPDKVKNFLRMEKWIFDSPDQAGETFRQFIKDFYQNNGFLNGGVVLGGQEVDLKDITCPVLNIFALQDHLVPPDASRALKGLTSSPDYTELAFPGGHIGIYVSGKAQKEVTPAIGKWLNER
B3: nitrilase Y142A (Rhodococcus rhodochrous, UniProt A4LA85); chain MVEYTNTFKVAAVQAQPVWFDAAKTVDKTVSIIAEAARNGCELVAFPEVFIPGYPYHIWVDSPLAGMAKFAVRYHENSLTMDSPHVQRLLDAARDHNIAVVVGISERDGGSLYMTQLIIDADGQLVARRRKLKPTHVERSVAGEGNGSDISVYDMPFARLGALNCWEHFQTLTKYAMYSMHEQVHVASWPGMSLYQPEVPAFGVDAQLTATRMYALEGQTFVVCTTQVVTPEAHEFFCENEEQRKLIGRGGGFARIIGPDGRDLATPLAEDEEGILYADIDLSAITLAKQAADPVGHYSRPDVLSLNFNQRRTTPVNTPLSTIHATHTFVPQFGALDGVRELNGADEQRALPSTHSDETDRATASI
B4: enzyme D236N (Acetivibrio thermocellus, UniProt A3DJ38); chain MKLTIPELSLVVLIGSSGSGKSTFAKKHFKPTEVISSDFCRGLVSDDENDQTVTGAAFDVLHYIVSKRLQLGKLTVVDATNVQESARKPLIEIAKDYHCFPVAVVFNLPEKVCQERNKNRTDRQVEEYVIRKHTQQLKKSIKGLQREGFRYVYILNSPEEVEEVVFERQPLWNNKKDEHGPFDIIGDIHGCYDELKMLLEKLGYLIEEVEGGVGSGKYRVTHPEGRKVLFLGDLVNRGPKITEVLKLVMGMVKSGIALCVPGNHDVKLLRKLNGRDVQITHGLDRTLEQLAKEPQEFIEEVKAFIDGLVSHYVLDDGKLVVAHAGMKEEFQGRGSGKVREFALYGETTGETDEYGLPVRYDWASDYRGKALVVYGHTPQAEVLKVNNTINIDTGCVFGGKLTAYRYPEREIVDVKALKTYYEPAKPFLPKEDMAERFEARTDNDILDINDVLGKKIITTRLMSSITIHEENSIAALEVMSRFAADPHWLIYLPPTMSPCETSKKEGMLEHPIEAFEYFRTRGVGKVVCEQKHMGSRAVVIVCKDSQVAEKRFGVLDGTAGICYTRTGRHFFDDMQLEAELIDRVRKVLDKSGFWGDFNTDWVCLDCELMPWSAKAQKLLEEQYSAVGISGRVVLDEAVKLLKQASLNKTVSFDVSRQTSGKNADINELLQRFTERSEMMQKYVEAYRKYCWPVNSIDDLKLAPFHILATEGKVHSDKNHIWHMDTIAKYCTQDDSLIMATNHILVDVTDAESVDKGIKWWEDLTASGGEGMVVKPYDFIVKNGRELLQPAVKCRGREYLRIIYGPEYTMDENIERLRNRAVGKKRSLALREFSLGMEALERFVRNEPLYRVHECVFGVLALESEPVDPRL
B5: Lxyl-p1-1 A72T (Lentinula edodes, UniProt G8GLN9); chain YFSGLGLGSERSIFRRDLNSTGDESNSTQWPAPLANGGKSWASAFKKAKSTVTEMTVEELANITSGVIGLCVGVTGAVTRLGIPELCLQDGPIGPRGVHGSSQFPAGLTVAATWDRTLMYARARGMGQEFHDQGVHIALAPVTGGPLGRTPLNGRGWEGTFADPYACGEASYQSVKGLTDAGVATVSKHWIAYEQETSRNLYIEFDGVSQADIQLPISSNVDDLTMHELYMWSFAEAVRAGTNHIMCSYNRINNTHSCNNAKGLNQLLKTELNFQGGVVSDWGGQWDSVLSAENGLDVGMPGEGFLGELGDFWGTTLADLINNGTVSEDLVRDKVVRLLTGYYYLGQDINPPPPFVYNTIGAPTLNATSGYRNVRKPGTAELIKEIGSASVTLLKNTGSLPLKHPQRIAVLGNDATYNVLGPNACGLANSACDIDNLNGTLTTGGGSGSALSPYTITPLEALQKRAIEDNAEIAAVVANSNTTTGAEDAIAALLPDADVTFVFLNRYSEEGADAPDFSLGGDGDNLMDLAVTYSSNVVVVIHTTGVVDIEKWADNPNVTAILVAYLPGQEAGNSLVPVLYGDVAPSGKLPWTWGKSIDDYVPNGVVYTDAYSPQSNFTEGVFIDYRWFDKMGITPRYEFGFGLSYTTFTYSNLIVDHGRWAKDYSSVMETAEPFAEWDGTNSLYDVIFTVFATITNTGNLTGSEVAQLYISIPGDNQPVRQLRGFDKIKDLPVGDSAVVTFPIRRKDVSSWSVVDQLWYVPNGDFLISVGGSSRDLPLNTTWTP
B6: protein F432Y (Streptomyces toyocaensis, UniProt Q8KLK7); chain MTTVLPPLEDTDGLWAALTEAAASVEKLLATLPEHGARSSAERAEIAAAHDAARALRVRFLDTHADAVYDRLTDHRRVHLRLAELVEAAATAFPGLVPTQQQLAVERSLPQAAKEGHEIDQGIFLRAVLRSPLAGPHLLDAMLRPTPRALELLPEFVRTGEVEMEAVHLERRDGVARLTMCRDDRLNAEDGQQVDDMETAVDLALLDPGVRVGLLRGGVMSHPRYRGKRVFSAGINLKYLSQGGISLVDFLMRRELGYIHKLVRGVLTNDDRPGWWHSPRIEKPWVAAVDGFAIGGGAQLLLVFDRVLASSDAYFSLPAAKEGIIPGAANLRLGRFAGPRVSRQVILEGRRIWAKEPEARLLVDEVVEPDELDAAIERSLTRLDGDAVLANRRMLNLADESPDGFRAYMAEFALMQALRLYGHDVIDKVGRYGGRPPA
B7: enzyme E217L/L163H/N249W (Thermobifida fusca, UniProt Q47RK4); chain MTDVYILDAVRTPFGRYGGALSGIRPDDLAAHVLRALAERSPGLDPAAVDDVFFGDANGAGEDNRNVARMAALLAGWPTSVPGVTLNRLCGSGMESVIAANRAIAVGDASLAVAGGVESMSRAPWVLPKPAQGFPTGHETLYSTTLGWRMVNPAMPEQWTVSHGESTEQVAATYGISRAEQDAFALRSHERAARAWAEGVFDAEITQIPGAELERDLSIRETSAEKLAALKPAFRPDGTITAGNASPLWDGAAALLIGDAAAAERVGREPLARIVSRGVAAVDPDVFGIGPVQAAEIALRRAGIGWDDLSVVELNEAFAAQSLACLKLWPDLDPEIVNPNGGAIAIGHPLGASGARIVGTLAHELHRRGGGWGLAAICIGVGQGLAVVLHR
Chain of UniProt Q33DQ2 (whole entry, looked up): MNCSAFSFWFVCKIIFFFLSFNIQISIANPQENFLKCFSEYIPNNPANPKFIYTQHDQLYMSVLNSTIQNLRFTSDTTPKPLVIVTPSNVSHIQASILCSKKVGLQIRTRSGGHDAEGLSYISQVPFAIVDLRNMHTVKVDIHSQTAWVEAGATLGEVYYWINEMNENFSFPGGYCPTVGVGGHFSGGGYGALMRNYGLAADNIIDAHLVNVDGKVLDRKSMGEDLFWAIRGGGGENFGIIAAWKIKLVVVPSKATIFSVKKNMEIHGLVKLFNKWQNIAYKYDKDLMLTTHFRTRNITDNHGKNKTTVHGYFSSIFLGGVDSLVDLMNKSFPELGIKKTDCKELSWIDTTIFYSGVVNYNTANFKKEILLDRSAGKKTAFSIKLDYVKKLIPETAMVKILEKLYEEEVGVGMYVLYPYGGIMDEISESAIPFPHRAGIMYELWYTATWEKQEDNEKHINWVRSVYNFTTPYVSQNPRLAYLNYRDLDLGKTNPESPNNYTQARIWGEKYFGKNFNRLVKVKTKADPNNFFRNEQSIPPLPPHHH
Chain of UniProt P21645 (whole entry, looked up): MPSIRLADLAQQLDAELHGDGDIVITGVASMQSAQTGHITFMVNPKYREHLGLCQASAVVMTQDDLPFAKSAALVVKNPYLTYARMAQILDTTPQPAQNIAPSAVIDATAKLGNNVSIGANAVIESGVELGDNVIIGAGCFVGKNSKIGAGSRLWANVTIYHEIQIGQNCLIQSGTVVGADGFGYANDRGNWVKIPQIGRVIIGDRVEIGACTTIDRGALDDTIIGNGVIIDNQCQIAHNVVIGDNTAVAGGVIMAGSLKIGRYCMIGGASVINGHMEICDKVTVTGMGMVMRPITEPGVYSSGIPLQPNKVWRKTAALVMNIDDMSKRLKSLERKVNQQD

For `tgt C145V/T146V/V217G (Escherichia coli)`, the Km was 2.09 µM (Nc1nc2nc[nH]c2c(=O)[nH]1; pH 7.3, 37 °C).
`protein (Brassica rapa, UniProt A0A0M7RFX0)` gave a Km of 0.248 µM (CSC(=S)NCc1c[nH]c2ccccc12; microsomes; pH 7.5, 30 °C, apparent, not purified, added: NADPH 1 mM).
The Km of `lip (Burkholderia cepacia, UniProt P22088)` is reported as 2070 µM (CCCCCCCCCCCCCCCC(=O)Oc1ccc([N+](=O)[O-])cc1; pH 7, 60 °C).
`B1 (UGT2A1)` has a Km of 0.9 µM (Oc1ccc(-c2ccccc2)cc1; not purified).
For `wbpB (Pseudomonas aeruginosa, UniProt G3XD23)`, the Km was 1350 µM (O=C(O)CCC(=O)C(=O)O; pH 8.5, 25 °C).
The Km of `lpxD (Escherichia coli, UniProt P21645)` is reported as 4 µM (CCCCCCCCCCC[C@@H](O)CC(=O)O[C@@H]1[C@@H](N)[C@@H](OP(=O)(O)OP(=O)(O)OC[C@H]2O[C@@H](n3ccc(=O)[nH]c3=O)[C@H](O)[C@@H]2O)O[C@H](CO)[C@H]1O; pH 8, 25 °C).
With `B2 (enzyme)` the Km was 70 µM (CC(C)(COP(=O)(O)OP(=O)(O)OC[C@H]1O[C@@H](n2cnc3c(N)ncnc32)[C@H](O)[C@@H]1OP(=O)(O)O)[C@@H](O)C(=O)NCCC(=O)NCCSC(=O)C[C@H](O)CN=[N+]=[N-]; pH 7.8, 30 °C).
`B3 (nitrilase Y142A)` gave a Km of 612 µM (Cc1cccc(C#N)c1; pH 7.5, 25 °C).
With `protein (Leishmania infantum, UniProt A4I093)` the Km was 230 µM (Nc1ncnc2c1ncn2[C@@H]1O[C@H](COP(=O)(O)OP(=O)(O)OP(=O)(O)O)[C@@H](O)[C@H]1O; 37 °C, MgCl2 4 mM, mild substrate inhibition, apparent, added: CoA).
With `B4 (enzyme D236N)` the Km was 6600 µM (Nc1ncnc2c1ncn2[C@@H]1O[C@H](CO)[C@H]2OP(=O)(O)O[C@H]21; pH 7.5, 45 °C).
`B5 (Lxyl-p1-1 A72T)` gave a Km of 1180 µM ([H][C@]12[C@H](OC(=O)c3ccccc3)[C@]3(O)C[C@H](OC(=O)[C@H](O)[C@@H](NC(=O)c4ccccc4)c4ccccc4)C(C)=C([C@@H](O)C(=O)[C@]1(C)[C@@H](O[C@@H]1OC[C@@H](O)[C@H](O)[C@H]1O)C[C@@]1([H])OC[C@@]21OC(C)=O)C3(C)C).
The Km of `B6 (protein F432Y)` is reported as 1.9 µM (CC(C)(COP(=O)(O)OP(=O)(O)OC[C@H]1O[C@@H](n2cnc3c(N)ncnc32)[C@H](O)[C@@H]1OP(=O)(O)O)[C@@H](O)C(=O)NCCC(=O)NCCSC(=O)Cc1cc(O)cc(O)c1; pH 7.5, 24 °C, added: O2).
The Km of `CBCAS (Cannabis sativa, UniProt Q33DQ2)` is reported as 9.3 µM (CCCCCc1cc(O)c(C/C=C(\C)CCC=C(C)C)c(O)c1C(=O)O; pH 5.5, 40 °C).
`MilB F17Y (Streptomyces rimofaciens)` has a Km of 4500 µM (Nc1ccn([C@@H]2O[C@H](COP(=O)(O)O)[C@@H](O)[C@H]2O)c(=O)n1; pH 7.5, 37 °C).
The Km of `aacA-aphD (Staphylococcus aureus, UniProt P0A0C1)` is reported as 69 µM (CN[C@@H]1[C@@H](O)[C@@H](O[C@@H]2[C@@H](O)[C@H](O[C@H]3OC(CNCCO)=CC[C@H]3N)[C@@H](N)C[C@H]2NC(=O)[C@@H](O)CCN)OC[C@]1(C)O; pH 7.5, 25 °C).
`B7 (enzyme E217L/L163H/N249W)` gave a Km of 2200 µM (CC(C)(COP(=O)(O)OP(=O)(O)OC[C@H]1O[C@@H](n2cnc3c(N)ncnc32)[C@H](O)[C@@H]1OP(=O)(O)O)[C@@H](O)C(=O)NCCC(=O)NCCSC(=O)CCCC(=O)O; pH 7.4, 37 °C).

Some of these lines once more:
With `B4 (enzyme D236N)` the Km was 6600 µM (Nc1ncnc2c1ncn2[C@@H]1O[C@H](CO)[C@H]2OP(=O)(O)O[C@H]21; pH 7.5, 45 °C).
For `wbpB (Pseudomonas aeruginosa, UniProt G3XD23)`, the Km was 1350 µM (O=C(O)CCC(=O)C(=O)O; pH 8.5, 25 °C).
